Results of several laboratories.
Several values in a cell are separate wells, animals, samples, runs or records. ± gives the spread as reported.
GRM2: Metabotropic glutamate receptor 2 (GRM2, Homo sapiens, UniProt Q14416)
Sequence of UniProt Q14416 (whole entry, looked up): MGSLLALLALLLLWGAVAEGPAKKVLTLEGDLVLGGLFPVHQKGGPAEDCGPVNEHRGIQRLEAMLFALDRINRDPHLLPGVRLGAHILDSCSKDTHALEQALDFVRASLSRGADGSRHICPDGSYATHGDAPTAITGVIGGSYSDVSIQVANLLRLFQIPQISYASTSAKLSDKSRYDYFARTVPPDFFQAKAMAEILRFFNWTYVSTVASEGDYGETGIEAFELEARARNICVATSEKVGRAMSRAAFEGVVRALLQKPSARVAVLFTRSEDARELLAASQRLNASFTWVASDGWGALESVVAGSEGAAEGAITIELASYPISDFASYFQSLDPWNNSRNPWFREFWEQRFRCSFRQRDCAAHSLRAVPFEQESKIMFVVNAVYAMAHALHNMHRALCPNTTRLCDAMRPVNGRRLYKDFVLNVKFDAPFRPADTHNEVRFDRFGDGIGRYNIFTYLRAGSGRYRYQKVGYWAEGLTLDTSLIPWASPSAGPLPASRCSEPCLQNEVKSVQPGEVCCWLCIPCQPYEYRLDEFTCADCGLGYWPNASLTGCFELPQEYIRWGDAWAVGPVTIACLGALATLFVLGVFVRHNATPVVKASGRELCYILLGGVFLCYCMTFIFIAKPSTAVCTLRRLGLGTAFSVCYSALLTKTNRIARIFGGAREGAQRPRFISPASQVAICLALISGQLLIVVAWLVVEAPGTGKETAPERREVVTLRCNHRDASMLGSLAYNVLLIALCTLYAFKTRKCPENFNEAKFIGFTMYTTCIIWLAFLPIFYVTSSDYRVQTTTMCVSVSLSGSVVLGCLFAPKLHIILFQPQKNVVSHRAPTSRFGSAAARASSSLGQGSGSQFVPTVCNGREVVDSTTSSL
qscR: qscR (Pseudomonas aeruginosa, UniProt G3XD77)
Sequence of UniProt P27361 (whole entry, looked up): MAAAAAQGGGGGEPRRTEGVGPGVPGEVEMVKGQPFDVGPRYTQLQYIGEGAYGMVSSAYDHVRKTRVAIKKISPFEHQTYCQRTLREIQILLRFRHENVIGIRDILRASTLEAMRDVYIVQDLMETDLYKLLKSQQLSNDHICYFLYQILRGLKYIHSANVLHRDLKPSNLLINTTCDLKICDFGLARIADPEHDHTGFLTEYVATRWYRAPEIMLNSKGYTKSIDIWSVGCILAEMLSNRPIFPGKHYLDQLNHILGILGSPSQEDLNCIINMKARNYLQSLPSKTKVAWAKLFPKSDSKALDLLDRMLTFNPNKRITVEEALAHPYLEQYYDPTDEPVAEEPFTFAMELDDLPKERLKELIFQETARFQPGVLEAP
Sequence of UniProt P42684 (whole entry, looked up): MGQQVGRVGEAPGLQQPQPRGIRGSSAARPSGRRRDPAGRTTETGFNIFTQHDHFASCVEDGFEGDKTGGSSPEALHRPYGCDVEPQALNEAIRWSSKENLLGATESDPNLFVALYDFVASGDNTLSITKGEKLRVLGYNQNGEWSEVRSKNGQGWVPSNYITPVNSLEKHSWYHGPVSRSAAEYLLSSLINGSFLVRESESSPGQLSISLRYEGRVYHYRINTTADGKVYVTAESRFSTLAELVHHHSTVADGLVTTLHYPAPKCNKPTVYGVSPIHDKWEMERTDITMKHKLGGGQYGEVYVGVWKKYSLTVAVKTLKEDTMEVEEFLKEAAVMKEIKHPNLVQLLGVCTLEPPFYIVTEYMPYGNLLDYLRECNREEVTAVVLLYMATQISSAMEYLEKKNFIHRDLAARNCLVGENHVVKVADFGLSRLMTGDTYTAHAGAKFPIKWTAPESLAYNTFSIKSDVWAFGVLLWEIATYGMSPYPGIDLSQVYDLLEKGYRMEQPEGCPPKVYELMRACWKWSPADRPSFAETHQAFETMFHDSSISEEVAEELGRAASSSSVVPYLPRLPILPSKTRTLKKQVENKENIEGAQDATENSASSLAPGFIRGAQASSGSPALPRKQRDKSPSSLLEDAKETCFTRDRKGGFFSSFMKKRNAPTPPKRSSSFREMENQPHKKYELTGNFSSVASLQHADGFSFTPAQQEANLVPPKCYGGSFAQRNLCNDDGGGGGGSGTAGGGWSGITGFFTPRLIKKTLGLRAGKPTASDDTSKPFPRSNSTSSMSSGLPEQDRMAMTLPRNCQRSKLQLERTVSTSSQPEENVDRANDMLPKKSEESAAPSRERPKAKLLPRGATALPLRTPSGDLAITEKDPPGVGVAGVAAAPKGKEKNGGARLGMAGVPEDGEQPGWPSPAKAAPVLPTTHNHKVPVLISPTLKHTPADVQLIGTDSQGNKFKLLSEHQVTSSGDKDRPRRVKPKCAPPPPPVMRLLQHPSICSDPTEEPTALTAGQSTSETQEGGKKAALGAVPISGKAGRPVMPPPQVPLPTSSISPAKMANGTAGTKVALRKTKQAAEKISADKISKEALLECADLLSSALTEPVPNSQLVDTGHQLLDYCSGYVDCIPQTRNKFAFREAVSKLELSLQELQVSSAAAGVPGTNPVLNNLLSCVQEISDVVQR
Sequence of UniProt Q13133 (whole entry, looked up): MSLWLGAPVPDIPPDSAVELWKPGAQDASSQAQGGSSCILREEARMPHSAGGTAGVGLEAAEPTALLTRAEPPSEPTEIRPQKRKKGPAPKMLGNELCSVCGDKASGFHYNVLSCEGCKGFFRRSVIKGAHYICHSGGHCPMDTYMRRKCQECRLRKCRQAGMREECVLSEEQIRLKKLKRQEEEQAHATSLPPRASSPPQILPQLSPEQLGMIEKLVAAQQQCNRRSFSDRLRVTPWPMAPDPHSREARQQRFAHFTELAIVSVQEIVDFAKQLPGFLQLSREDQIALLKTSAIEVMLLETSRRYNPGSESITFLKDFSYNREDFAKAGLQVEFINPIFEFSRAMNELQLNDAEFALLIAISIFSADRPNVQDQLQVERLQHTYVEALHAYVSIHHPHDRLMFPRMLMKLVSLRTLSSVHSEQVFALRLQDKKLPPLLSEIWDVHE
Sequence of UniProt P06239 (whole entry, looked up): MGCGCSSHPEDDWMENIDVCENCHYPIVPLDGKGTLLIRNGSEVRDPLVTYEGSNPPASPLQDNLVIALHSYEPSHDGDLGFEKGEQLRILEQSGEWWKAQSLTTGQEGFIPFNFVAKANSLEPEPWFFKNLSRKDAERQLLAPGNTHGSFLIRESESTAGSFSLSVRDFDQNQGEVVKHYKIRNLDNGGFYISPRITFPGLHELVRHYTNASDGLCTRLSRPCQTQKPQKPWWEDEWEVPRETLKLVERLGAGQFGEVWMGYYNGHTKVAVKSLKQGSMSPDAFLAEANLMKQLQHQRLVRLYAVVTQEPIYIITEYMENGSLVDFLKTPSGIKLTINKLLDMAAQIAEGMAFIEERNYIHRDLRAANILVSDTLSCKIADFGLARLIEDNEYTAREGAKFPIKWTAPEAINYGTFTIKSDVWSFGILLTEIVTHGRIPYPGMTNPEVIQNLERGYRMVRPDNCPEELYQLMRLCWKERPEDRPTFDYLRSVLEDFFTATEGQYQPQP
Sequence of UniProt O14980 (whole entry, looked up): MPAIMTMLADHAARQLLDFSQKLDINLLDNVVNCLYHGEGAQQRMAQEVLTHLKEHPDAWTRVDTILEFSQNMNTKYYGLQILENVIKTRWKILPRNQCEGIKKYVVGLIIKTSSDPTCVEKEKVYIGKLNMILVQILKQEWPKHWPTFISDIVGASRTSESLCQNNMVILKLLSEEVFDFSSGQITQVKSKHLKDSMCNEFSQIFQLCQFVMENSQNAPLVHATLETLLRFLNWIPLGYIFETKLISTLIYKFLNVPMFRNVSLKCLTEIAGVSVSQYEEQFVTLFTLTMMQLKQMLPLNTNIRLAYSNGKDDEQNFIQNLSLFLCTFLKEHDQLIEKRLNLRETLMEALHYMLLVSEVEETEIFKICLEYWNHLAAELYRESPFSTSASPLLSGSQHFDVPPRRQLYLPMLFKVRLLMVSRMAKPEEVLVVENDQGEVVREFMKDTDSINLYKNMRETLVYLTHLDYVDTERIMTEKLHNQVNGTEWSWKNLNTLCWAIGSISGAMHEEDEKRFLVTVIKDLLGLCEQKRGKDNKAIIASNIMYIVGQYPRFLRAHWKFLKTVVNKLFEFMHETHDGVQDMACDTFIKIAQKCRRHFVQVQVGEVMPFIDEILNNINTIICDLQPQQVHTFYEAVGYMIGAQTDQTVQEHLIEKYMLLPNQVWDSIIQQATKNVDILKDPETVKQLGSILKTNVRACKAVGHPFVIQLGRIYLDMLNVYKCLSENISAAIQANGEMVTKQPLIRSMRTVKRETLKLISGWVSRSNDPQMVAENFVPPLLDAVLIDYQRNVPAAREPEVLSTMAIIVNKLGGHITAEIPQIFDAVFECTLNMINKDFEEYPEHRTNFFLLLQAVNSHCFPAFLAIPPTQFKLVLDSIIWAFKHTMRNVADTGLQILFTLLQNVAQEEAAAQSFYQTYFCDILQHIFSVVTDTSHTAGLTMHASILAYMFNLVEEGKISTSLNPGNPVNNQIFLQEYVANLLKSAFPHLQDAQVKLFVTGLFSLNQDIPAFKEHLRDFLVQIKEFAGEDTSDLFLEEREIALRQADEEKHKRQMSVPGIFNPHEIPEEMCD
Sequence of UniProt P36507 (whole entry, looked up): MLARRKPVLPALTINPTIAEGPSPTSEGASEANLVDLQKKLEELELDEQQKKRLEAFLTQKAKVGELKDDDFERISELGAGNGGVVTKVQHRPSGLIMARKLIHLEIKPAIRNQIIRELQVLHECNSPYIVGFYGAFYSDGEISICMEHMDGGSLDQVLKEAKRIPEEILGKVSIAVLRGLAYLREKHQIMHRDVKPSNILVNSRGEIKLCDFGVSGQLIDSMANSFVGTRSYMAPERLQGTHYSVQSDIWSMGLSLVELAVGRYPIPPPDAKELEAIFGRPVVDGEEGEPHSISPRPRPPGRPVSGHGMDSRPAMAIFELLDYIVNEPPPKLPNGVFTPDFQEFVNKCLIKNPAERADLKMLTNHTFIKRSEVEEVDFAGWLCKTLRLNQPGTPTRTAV

COc1cc2nccc(Oc3ccc(NC(=O)c4cc5c(n(-c6ccccc6)c4=O)CCCC5=O)nc3)c2cc1OC — selectivity ratio (LCK (Homo sapiens, UniProt P06239); cell viability, CellTiter-Glo; Ba/F3 expressing recombinant kinase; baseline: LCK IC50 over AXL IC50): > 100
CC1(C)S[C@@H]2[C@H](NC(=O)[C@H](N)c3ccccc3)C(=O)N2[C@H]1C(=O)O — kinact/KI (Penicillin-binding protein 2a (pbp2a, Streptococcus pneumoniae, UniProt Q8DNB6); inhibitor): 4600 ± 480 M⁻¹ s⁻¹
O=C[C@H](O)COP(=O)(O)O — Km (TPI1 (Saccharomyces cerevisiae, UniProt P00942, Y208S); substrate, GPDH/NADH-coupled; pH 4.9, 25 °C): ~21 mM
CCN(CC)CCCC[C@H](NC(=O)[C@H](CC(C)C)NC(=O)[C@H](C)NC(=O)[C@H](Cc1ccccc1)NC(=O)c1ccc(C(C)(C)C)cc1)C(=O)N[C@@H](CO)C(=O)OC — delta Tm (Transcription intermediary factor 1-alpha, PHD-bromodomain (TRIM24, Homo sapiens, UniProt O15164); thermal stabilisation, thermal shift; 25 µM; baseline: protein without compound, higher = stronger binding): 0.49 °C
CC[C@H](C)[C@@H]1NC(=O)[C@H](Cc2c[nH]c3ccccc23)NC(=O)[C@H](Cc2ccc(O)cc2)NC(=O)CSC[C@@H](C(N)=O)NC(=O)[C@H]([C@@H](C)O)NC(=O)[C@H](CO)NC(=O)[C@H](C(C)C)NC(=O)[C@H](Cc2ccc(O)cc2)NC(=O)[C@H](CCCNC(=N)N)NC(=O)[C@H](Cc2ccc(O)cc2)NC(=O)[C@H]([C@@H](C)O)NC(=O)[C@H]([C@@H](C)O)NC(=O)[C@H](Cc2c[nH]c3ccccc23)NC(=O)[C@H](CO)NC(=O)[C@H](CC(N)=O)NC(=O)[C@H](CO)NC1=O — ΔH (Vacuolar protein sorting-associated protein 26A/Vacuolar protein sorting-associated protein 35, Vps35 residues 1–172 (Homo sapiens, UniProt O75436+Q96QK1); ITC; 25 °C): -6.3 ± 2.5 kcal/mol
CCOC(=O)COc1ccc2c(=O)c3ccccc3oc2c1 — Vmax (ache (Electrophorus electricus, UniProt O42275); enzyme activity, inhibitor, Lineweaver-Burk plot; 0.42 µM; higher = faster reaction): 0.0055 a.u.
C[N+](C)(C)CCOS(=O)(=O)[O-] — thermal shift (uncharacterized protein (Pelagibacter ubique, UniProt Q4FMG4); differential scanning fluorimetry; Candidatus Pelagibacter ubique; in-house screen): 3.47 °C
O=C(c1ccc(Cl)cc1)N1CCN2C(=O)N(OC(=O)N3CCOc4ccccc43)C(=O)C2C1 (stereo not drawn) — median ratio (OVCA2 (Homo sapiens, UniProt Q8WZ82); enzyme activity, inhibitor, MS-based ABPP; SW-620 in situ; 10 µM, 2 h, 37 °C; baseline: compound over DMSO, lower = stronger inhibition): 1.08
CN[C@@H]1C[C@H]2O[C@@](C)([C@@H]1OC)n1c3ccccc3c3c4c(c5c6ccccc6n2c5c31)C(=O)NC4 — remaining activity (CDC2-like kinase 1 (Trypanosoma brucei brucei, UniProt Q382U0); kinase activity, ADP-Glo; 0.3125 µM): 27.2%
COc1cc(N)c(Cl)cc1C(=O)NC1CN2CCC1CC2 (stereo not drawn) — log2 fold change (Adhesion G-protein coupled receptor F3 (ADGRF3, Homo sapiens, UniProt Q8IZF5); β-arrestin recruitment, TANGO luminescence, measured: GPR113; concentration not given; baseline: basal luminescence): 0.524
O=C(O)CCCCN(CCc1cc(F)ccc1OCc1ccc(-c2ccc(C(F)(F)F)cc2)cc1)Cc1ccc(C(=O)O)cc1 — cGMP level (GUCY1B1, with alpha-1 subunit (Homo sapiens, UniProt Q02153); sGC activation, activator; human cells; concentration not given): increased
CC12CCC(CC1)C(C)(C)O2 — ΔH (1,8-cineole 2-endo-monooxygenase (cinA, Citrobacter braakii, UniProt Q8VQF6, N242A); ITC; 25 °C, N242A enzyme variant): 1.22 ± 0.02 kcal/mol
CN1CCN(c2cc(-c3ccncc3)c(-c3ccc4ccccc4c3)nn2)CC1 — activation (DRD4 (Homo sapiens, UniProt P21917); agonist, FLIPR; 12.5 µM): -1.7%
O=C(Nc1cnccc1Cl)N1CCN(Cc2ccc3c(c2)OC(F)(F)O3)CC1 — probe labelling (Alpha-2-HS-glycoprotein (Ahsg, Rattus norvegicus, UniProt P24090); competitive ABPP with azido-FP probe; rat brain soluble fraction; 1 µM, unit not given; baseline: DMSO): -1
COC(=O)[C@@]1(O)C[C@H]2O[C@]1(C)n1c3ccccc3c3c4c(c5c6ccccc6n2c5c31)C(=O)NC4 — kinase activity (MAPK3 (Homo sapiens, UniProt P27361); ADP-Glo; 2.91 µM, with: MBP substrate): 102% and 126% and 94.3%
CCCCC/C=C\C/C=C\C/C=C\C/C=C\CCCC(=O)NCCO — maximal open probability (Trpv1 (Mus musculus, UniProt Q704Y3, N552L); ion current, agonist, whole-cell patch clamp; N552L; baseline: 3 mM 2-APB): 0.82 ± 0.17
CC(C)NC[C@@H](O)COc1cccc2ccccc12 — enantioselectivity (OCT1 human; binding, frontal displacement chromatography; unit not given; baseline: higher Ki over lower Ki): 3
CC(C)[C@@H](O)CC[C@@H](C)[C@H]1CC[C@H]2[C@@H]3CC=C4C[C@@H](O)CC[C@]4(C)[C@H]3CC[C@]12C — current response (Glutamate NMDA receptor; GRIN1/GRIN2B (GRIN1/GRIN2B, Homo sapiens, UniProt Q05586+Q13224, L650A); positive allosteric modulator, two-electrode voltage clamp; Xenopus oocytes expressing GluN2B-L650A; 10 µM, 0.02% cremophor, with: 100 µM glutamate and glycine; baseline: without compound): 145 ± 8%
CC(=O)C(c1ccccc1)c1ccccc1 — activity (NR1H3 (Homo sapiens, UniProt Q13133); cells; concentration not given): inactive
[2H]c1c([2H])c([C@]2([2H])CCCN2C(=O)C(C)(C)Oc2ccc3cn[nH]c3c2)c([2H])c([2H])c1C([2H])([2H])[2H] — remaining binding (MAPK8 (Homo sapiens, UniProt P45983); KINOMEscan; 1 µM; baseline: DMSO control): 83%
COc1cc(Nc2ncc(F)c(Nc3ccc4c(n3)NC(=O)C(C)(C)O4)n2)cc(OC)c1OC — inhibition (GSK3A (Homo sapiens, UniProt P49840); KINOMEscan; 10 µM): 60%
COc1ccc(F)cc1C(=O)NCc1ccc(-c2nn([C@@H](C)C(F)(F)F)c(N)c2C(N)=O)cc1 — selectivity ratio (MAP2K2 (Homo sapiens, UniProt P36507); enzyme activity; baseline: MAP2K2 over BTK): 26.3
COc1ccc(N2C(=O)N(c3c(C)cccc3Cl)Cc3cnc(Nc4ccc(C5CCN(C)CC5)cc4OC)nc32)nc1 — inhibition (ABL2 (Homo sapiens, UniProt P42684); kinase activity, inhibitor; 0.5 µM, ARG): 96%
Nc1ncnc2c1ncn2[C@@H]1O[C@H](COP(=O)(O)OP(=O)(O)OP(=O)(O)O)[C@@H](O)[C@H]1O — fluorescence ratio F+/F- (matB (Rhodopseudomonas palustris, UniProt Q6ND88, C106A/K488A/Q457C/R286C); binding; pH 7.0, 50 mM Hepes, 50 mM NaCl): 3.4
Clc1cc2c(cc1Cl)Oc1cc(Cl)c(Cl)cc1O2 — EC20 (Uncharacterized protein (Takifugu rubripes, UniProt Q4JHL4); reporter gene, agonist, dual-luciferase; COS-7; 24 h): 0.25 ± 0.16 nM
CN(C(=O)n1cnc(-c2ccc[n+]([O-])c2)c1)C1CCCCC1 — inhibition (GRM2; radioligand binding; 10 µM, with: [3H]LY341495): -4%
C[C@H]1CN(c2n[nH]c3nc(N[C@H]4CC[C@H](NS(=O)(=O)CCC(F)(F)F)CC4)ncc23)CCO1 — relative abundance (Exportin-1 (XPO1, Homo sapiens, UniProt O14980); inhibitor, Kinobeads competition profiling; 0.16 µM; baseline: vehicle): 0.9
CCCCCCCCCC(=O)CC(=O)N[C@H]1CCOC1=O — melting temperature (qscR; ligand, differential scanning fluorimetry; ligand complex): 57.1 °C
COc1cc2c(NC3CCN(C)CC3)cc(-c3ccc(C)o3)nc2cc1OCCCN1CCCC1 — inhibition (DNMT1 (Homo sapiens, UniProt P26358); enzyme activity; 411.52 nM): -9.33%
COc1cc(O)cc(/C=C/c2ccc(O)cc2)c1 — cooperativity factor σ (O-methyltransferase (Sorghum bicolor, UniProt A0A1B6PFV1); biolayer interferometry; with: saturating SAH): 14.7
COc1ncccc1-c1cnn2ccc(N3CCN(C(=O)OC(C)C)CC3)nc12 — remaining binding (Ribosomal protein S6 kinase alpha-4, C-terminal kinase domain (RPS6KA4, Homo sapiens, UniProt O75676); KINOMEscan binding; 1 µM; baseline: untreated control): 100%
CO/N=C(\C(=O)N[C@@H]1C(=O)N2C(C(=O)O)=C(CSc3nc(=O)c(=O)[nH]n3C)CS[C@H]12)c1csc(N)n1 — kinact/KI (Penicillin-binding protein 2X (Streptococcus pneumoniae R6, UniProt P59676); inhibitor; Streptococcus pneumoniae): 30000 ± 7800 M⁻¹ s⁻¹
O=C(Nc1cccnn1)N1CCC(=Cc2cccc(Oc3ccc(C(F)(F)F)cn3)c2)CC1 — inhibition of binding (GRM2; radioligand binding; 10 µM, with: [3H]LY341495): -4%
CN(C(=O)n1cnc(-c2ccc[n+]([O-])c2)c1)C1CCCCC1 — fold change (Monoacylglycerol lipase ABHD6 (Abhd6, Rattus norvegicus, UniProt Q5XI64); enzyme activity, ABPP; rat, brain; oral, 30 mg/kg/day, 7 days; baseline: vehicle): -5.6
O=C(CCCOc1ccc(Cl)cc1)NC1CCOC1=O (stereo not drawn) — K0.5 (qscR; ligand binding, FRET displacement; intact cells; apparent affinity): 46 nM
COc1ccc(Nc2nn3c(-c4ccccc4)ccnc3c2C(=O)Nc2ccc(Cl)cc2)cc1 — band quantity (α-glucosidase; SDS-PAGE densitometry, measured: 45 kDa band; 1 mg/mL; baseline: untreated enzyme, lower = more denaturation): 0.76 a.u.

Excerpt of the above:
O=C[C@H](O)COP(=O)(O)O — Km (TPI1 (Saccharomyces cerevisiae, UniProt P00942, Y208S); substrate, GPDH/NADH-coupled; pH 4.9, 25 °C): ~21 mM
CCN(CC)CCCC[C@H](NC(=O)[C@H](CC(C)C)NC(=O)[C@H](C)NC(=O)[C@H](Cc1ccccc1)NC(=O)c1ccc(C(C)(C)C)cc1)C(=O)N[C@@H](CO)C(=O)OC — delta Tm (Transcription intermediary factor 1-alpha, PHD-bromodomain (TRIM24, Homo sapiens, UniProt O15164); thermal stabilisation, thermal shift; 25 µM; baseline: protein without compound, higher = stronger binding): 0.49 °C
